Measured values of several laboratories.
Every numbered part comes from another study and shows a few of its results, in no order.

Block 1 — method: protein-binding microarray; molecule type: double-stranded DNA, one strand shown; medium: in vitro; tested at: not given; direction: higher = stronger binding; measurement: E-score
Target: Max-binding protein MNT, bHLH-zipper, MAX partner unstated (MNT, Homo sapiens, UniProt Q99583, residues 220-300)
Notes: k-mer, scored over probes, only values ≥0.25
Construct (chain): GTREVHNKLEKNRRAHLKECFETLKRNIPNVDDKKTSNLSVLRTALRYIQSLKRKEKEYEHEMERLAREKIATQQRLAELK
ACATGATG: 0.261
AGGCGCAC: 0.287
ATAACGTG: 0.391
ATCACGTC: 0.255
CCACGCTA: 0.354
CCTACACG: 0.306

Block 2 — method: RNA Bind-n-Seq; molecule type: RNA; medium: in vitro; tested at: 365 nM; relative to: no-protein control; direction: higher = stronger binding; measurement: RBNS enrichment (R)
Target: RNA binding protein fox-1 homolog 2, RRM domain, GST-SBP tag (RBFOX2, Homo sapiens, UniProt O43251-10, residues 100-194)
Notes: natural RNA segment, single round, ends assumed
Constant ends, left off below: GGGAGUUCUACAGUCCGACGAUC … UGGAAUUCUCGGGUGCCAA
Construct (chain): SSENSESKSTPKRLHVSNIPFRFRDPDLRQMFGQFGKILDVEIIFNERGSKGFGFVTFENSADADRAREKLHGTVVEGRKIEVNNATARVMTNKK
GAGAAGUCUGGUUAACAUCCAUCAGCAGAAUGAGUUAAAACACACAAUGAAUUCAAUCUAUCAGGAUGUUCAUUUUUGGUAGGGAAUGGUUAAAAGAAAAGAACAAUAAG: 0.584
UUCUUUUCUCCUUUACCAGUCCUAUUUUUCAAUGGGAAGACUCAGGAGUCUGCCACUUGUCAAAGAAGGUGCUGAUCCUAAGAAUUUUUCAUUCUCAGAAUUCGGUGUGC: 0.248
CAGUCCUCUGUAGUCCAGAGAGGUGAGAUUAGAUCUUCUUGGUUCCCUGUGAGGUUUCAGGCACUAAAACUCUAUGUGGGGAAGGGAGGGGUUACUCCUCCUCCAAUGGG: 0.434
UUCUAUUAUAACUGCAUAGUAAUAGGGCCCUUAGCUCUCCCGUAGUCAGCGCAGUUUAGCAGUUAAAAGUGUAUUUUUGUUUAAUCAAACAAUAAUAAAGAGAGAUUUGU: 0.485
AAUUUCAUUUGCAUUUUCCACAUGAACUAGUUCCAAAUCUGAAGCCCAGGUUGGGCAUGACAUUACAACCCCAGCCCUACCUCAUCUGUGCAGAAAGACGCUGAAAGUGC: 4.56
CUUAAAGCAUUAAAAAUGCUUAUUAAUAACUUUGGUCAUUUAAAAAAUGCUACAAUGACUUCCUAUUAAAGGUUCAAUAUUUACACAUUCUUAUUGGUUGAUAUUACCAC: 0.457
CUGAAGAUUGUCCUGGCCGCGACCUGGACCUCCAUGAGUGGAGGGAAGAGUGAUCUAUGUCUCUUCCCCCAGCAGCUCGGACCACUCCCAGCCCCCCAUCCCCCCGUUCC: 0.411

Block 3 — method: aptamer microarray, sandwich; molecule type: DNA with 2'F-ANA; medium: in vitro; tested at: 200 nM; with: Cy3 exosite-II aptamer, 400 nM; direction: higher = stronger binding; measurement: mean fluorescence intensity; oligonucleotide: GGTTGGTGTGGTTGG
Target: Prothrombin, mature alpha-thrombin (F2, Homo sapiens, UniProt P00734)
Notes: whole 15-mer aptamer, many near background
2'F-ANA at 1 3 7 8 14 15: 130 a.u.
2'F-ANA at 4 7 8 10 11 12: 123 a.u.
2'F-ANA at 1 3 5 9 10 12 14 15: 53.5 a.u.
2'F-ANA at 1 2 5 6 7 8 9 12 13 14: 49 a.u.
2'F-ANA at 3 5 9 11 12 13: 157 a.u.

Mixed results
PhoQ, residues 284 288 289 292 302 303 SLANIV  fold induction (PhoP, residues 12 14 15 18 19 SQCLL (Escherichia coli, UniProt P23836); Sort-seq, item: YFP reporter; E. coli; PhoQ-PhoP variant library, with: 10 µM Mg2+; relative to: high Mg2+ state, higher = stronger signaling): 14.6

Excerpt of the above (block 2):
UUCUUUUCUCCUUUACCAGUCCUAUUUUUCAAUGGGAAGACUCAGGAGUCUGCCACUUGUCAAAGAAGGUGCUGAUCCUAAGAAUUUUUCAUUCUCAGAAUUCGGUGUGC: 0.248
